Assay results of several laboratories.
Compare with care: the assays were run in different laboratories.

The inhibition of `CON=C(C(=O)NC1C(=O)N2C(C(=O)OCOC(=O)C(C)(C)C)=C(C)CSC12)c1csc(N)n1` (stereo not drawn) is reported as 0.0765% (THP-1; pyroptotic LDH release; 2 µM, 40 min, with: LPS then nigericin).
`COC[C@H](NC(=O)c1cnc(C)s1)C(=O)N[C@@H](COC)C(=O)N[C@@H](Cc1ccccc1)C(=O)[C@@]1(C)CO1` has an EC50 of 0.285 µM (HEK293T ATF4-FLuc reporter; ATF4 reporter gene, activator, luciferase reporter).
The inhibition of `CCN(CCCCOC(=O)c1ccc(OC)c(OC)c1)C(C)Cc1ccc(OC)cc1` (stereo not drawn) is reported as 28.7% (THP-1; pyroptotic LDH release; 2 µM, 40 min, with: LPS then nigericin).
`C=CC[C@@H]1/C=C(\C)C[C@H](C)C[C@H](OC)[C@H]2O[C@@](O)(C(=O)C(=O)N3CCCC[C@H]3C(=O)O[C@H](/C(C)=C/[C@@H]3CC[C@@H](O)[C@H](OC)C3)[C@H](C)[C@@H](O)CC1=O)[C@H](C)C[C@@H]2OC` has an EC50 of 4.45 µM (HEK293T ATF4-FLuc reporter; ATF4 reporter gene, activator, luciferase reporter).
For `CCn1cc(-c2cc(Cn3ccnc3)cc3c2CCN([C@H](c2cc(OC)ccn2)C2CC2)C3=O)c(C(F)(F)F)n1`, the EC50 was 0.00147 µM (NUGC-3; cell growth, inhibitor; 120 h).
Under “log2 fold change”, `O=c1[nH]nc(OCCCc2ccc(Cl)cc2)c(NCc2cccnc2)c1Br` is recorded as 0.0372 (HEK293T; RNA-seq, refers to: CBX4 mRNA; 10 µM, 6 h; reference: vehicle).
The inhibition of `CCCCCCCC(=O)c1c(O)cc(O)cc1CC(=O)OCC` is reported as 9.92% (THP-1; pyroptotic LDH release; 2 µM, 40 min, with: LPS then nigericin).
For `COc1cnc2cccc(N3CCc4c(cc(Cn5ccnc5C)cc4-c4cn(C)nc4C(F)(F)F)C3=O)c2c1`, the EC50 was 3.03 µM (HEP3B217; cell growth; 120 h).
`C[n+]1ccccc1/C=N/O` has an inhibition of 2.65% (THP-1; pyroptotic LDH release; 2 µM, 40 min, with: LPS then nigericin).
With `CCn1cc(-c2cc(Cn3ccoc3=N)cc3c2CCN([C@@H](C)c2cc(OC)ccn2)C3=O)c(C(F)(F)F)n1` the EC50 was 8.41 µM (SUM-159-PT; cell growth, inhibitor; 120 h).
`Cn1cc(-c2ccc(-c3cncc(Cl)c3N3CCC4(CCNC4=O)CC3)cc2)cn1`: “log2 fold change” 2.51 (COLO 205; gene expression, microarray, refers to: BTG2 mRNA; concentration not given, 2 h; reference: untreated cells).
For `COc1ncccc1-c1cnc(N)c(Nc2ccc3[nH]ccc3c2)n1`, the EC50 was 7.84 µM (HEK293T ATF4-FLuc reporter; ATF4 reporter gene, activator, luciferase reporter).
With `O=C(/C=C/C=C/C=C/C1CCCCC1)NC1=C[C@@](O)(/C=C/C=C/C=C/C(=O)NC2=C(O)CCC2=O)[C@@H]2O[C@@H]2C1=O` the GI50 was 23.5 µM (hec108; cell growth, inhibitor, CellTiter-Glo luminescence; 78 h; reference: day 0 cell count).
`CC(C)(CO)CO` has an inhibition of 24.8% (THP-1; pyroptotic LDH release; 2 µM, 40 min, with: LPS then nigericin).
`O=C(Nc1ccc(Cl)cc1)Nc1ccc(Cl)c(Cl)c1` gave an EC50 of 3.14 µM (HEK293T ATF4-FLuc reporter; ATF4 reporter gene, activator, luciferase reporter).

Some of these lines once more:
`O=C(Nc1ccc(Cl)cc1)Nc1ccc(Cl)c(Cl)c1` gave an EC50 of 3.14 µM (HEK293T ATF4-FLuc reporter; ATF4 reporter gene, activator, luciferase reporter).
`C=CC[C@@H]1/C=C(\C)C[C@H](C)C[C@H](OC)[C@H]2O[C@@](O)(C(=O)C(=O)N3CCCC[C@H]3C(=O)O[C@H](/C(C)=C/[C@@H]3CC[C@@H](O)[C@H](OC)C3)[C@H](C)[C@@H](O)CC1=O)[C@H](C)C[C@@H]2OC` has an EC50 of 4.45 µM (HEK293T ATF4-FLuc reporter; ATF4 reporter gene, activator, luciferase reporter).
